Measurements of several laboratories.
Lines come from different studies, so protocols differ. Several values in a cell are separate wells, animals, samples, runs or records. Numbers after ± are the reported error.
Cell line: MCF7

SMILES	assay	setting	how to read	quantity	value
CSC(=S)N/N=C(\C)c1ccc(Nc2nnc(-c3ccc(Cl)cc3)c3ccccc23)cc1	cell growth or viability, MTT	78 nM	–	cell death	7.08%
CCCC(CCC)C(=O)OCc1cn(-c2cc3ccccc3oc2=O)nn1	NCI60 single-dose screen	10 µM	–	growth percentage	889%
COc1ccc(C2CC(=O)c3c(cc(O)c(CC=C(C)C)c3O)O2)cc1 (stereo not shown)	cytotoxicity, MTT	56.43 µM, 48 h	–	growth inhibition	5.23%
COc1ccccc1CNC[C@](O)(COCc1ccccc1)[C@@H]1CC[C@@H](C)C[C@H]1OCc1ccccc1	cell growth or viability, MTT	10 µM, 72 h	–	inhibition	84.9%
CC(=O)[O][Pd][c]1cc(C)ccc1N1N=C(C)C(C)(C)C1=O.CC(=O)[O][Pd][c]1cc(C)ccc1N1N=C(C)C(C)(C)C1=O	FLICA flow cytometry	25 µM, 24 h	–	caspase-9 active cells	21.6 ± 5.37%
Cc1c(COc2cc(OCc3cccc(C#N)c3)c(CNC(CO)(CO)CO)cc2Cl)cccc1-c1cccc(OCCCCCC(=O)NO)c1	flow cytometry, PI staining	20 µM, 48 h	–	G1 phase cells	64.2%
FC(F)(F)C1(c2ccc(CN3CCN(C(c4ccccc4)c4ccc(Cl)cc4)CC3)cc2)CC1 (stereo not shown)	–	72 h	–	EC50	21 ± 1.71 µM
CCC(=CCc1c(O)cc2c(c1O)C(=O)CC(c1cccc(O)c1)O2)CC (stereo not shown)	cytotoxicity, MTT	108.6 µM, 48 h	–	growth inhibition	78.9%
C[C@@H]1CC[C@@H]([C@@](O)(CNCc2ccccc2F)COCc2ccccc2)[C@H](OCc2ccccc2)C1	cell growth or viability, MTT	10 µM, 72 h	–	inhibition	83.7%
CCC(=CCc1c(O)cc2c(c1O)C(=O)CC(c1ccccc1O)O2)CC (stereo not shown)	cytotoxicity, MTT	3.393 µM, 48 h	–	growth inhibition	-4.5%
CCCCCCCCCCCCCC(=S)NCCCC[C@H](NS(C)(=O)=O)C(=O)N[C@H](C)C(=O)N[C@@H](CCCNC(=N)N)C(N)=O	cell growth or viability, MTT	72 h	–	EC50	29 to 55 µM
CSC(=NN=C(C)c1ccc(S(=O)(=O)N2CCC(C)CC2)cc1)N(C)C	flow cytometry	4.29 µM (IC50), 72 h	–	cells in G2/M phase	28.3%
CC(=O)[O][Pd][c]1ccccc1-n1nc(C)cc1C.CC(=O)[O][Pd][c]1ccccc1-n1nc(C)cc1C	FLICA flow cytometry	25 µM, 24 h	–	caspase-8 active cells	50.3 ± 2.53%
CC[C@@H]([C@@H](C)c1ccc(O)cc1)[C@@H](CC)c1ccc(O)cc1	cell growth or viability, ATP luminescence	5 days	–	EC50	0.0076 µM
C/C(=N\N=c1/[nH]c(-c2ccccc2)cs1)c1c(O)c2ccccc2oc1=O	cell growth, MTT	–	baseline: IC50 BJ-1 over MCF7	selectivity index	> 2.87
Oc1cccc(-c2cccc(O)n2)n1.[Cl-].[Cl-].[Ru+2].c1ccc(-c2ccnc3c2ccc2c(-c4ccccc4)ccnc23)cc1.c1ccc(-c2ccnc3c2ccc2c(-c4ccccc4)ccnc23)cc1	cell viability	–	baseline: dark EC50 over light EC50	phototoxicity index	8.9
CSC(=S)N/N=C(\C)c1ccc(S(=O)(=O)N2CCC(C)CC2)cc1	flow cytometry	4.29 µM (IC50), 72 h	–	cells in G2/M phase	35.3%
Cc1cc(C)nc(SCC(=O)Nc2ncc(Cc3cccc4ccccc34)s2)n1	cell viability, MTS	10 µM	–	inhibition	16.2 ± 3.5%
COCCCCCNc1nc(NCCCCCCN(C)C)c2cc(NC(=O)/C=C/CN(C)C)ccc2n1	CellTiter-Glo	50 µM, 24 h, unit not given	baseline: DMSO-treated cells	viability	0.887 and 0.948 and 0.898

SMILES	assay	setting	how to read	quantity	value
COc1ccc(COC[C@](O)(CNCc2ccc(F)cc2)[C@@H]2CC[C@@H](C)C[C@H]2OCc2ccc(OC)cc2)cc1	cell growth or viability, MTT	30 µM, 72 h	–	inhibition	102%
COC(=O)c1cc(NC2=NC(=O)C(=Cc3ccc(C)cc3)S2)ccc1OC(C)=O	GC-MS, refers to: Uracil	1 µM	baseline: DMSO	metabolite level	0.03 fold change
C=CCc1c(O)cc2c(c1O)C(=O)CC(c1ccc(O)cc1)O2 (stereo not shown)	cytotoxicity, MTT	32.02 µM, 48 h	–	growth inhibition	2.23%
COc1ccc(CNC[C@@](O)(COCc2ccccc2)[C@@H]2CC[C@@H](C)C[C@H]2OCc2ccccc2)cc1	cell growth or viability, MTT	10 µM, 72 h	–	inhibition	93.3%
O=C(CCl)c1ccccc1Nc1cccc(C(F)(F)F)c1	firefly luciferase reporter	50 µM, 6 h	baseline: vehicle	TEAD reporter activity	0.3 ± 0.1%
COc1cccc(CNC[C@](O)(COCc2ccccc2)[C@@H]2CC[C@@H](C)C[C@H]2OCc2ccccc2)c1	cell growth or viability, MTT	10 µM, 72 h	–	inhibition	95.7%
CC(=NN=c1sc(C(=O)c2ccccc2)nn1-c1ccccc1)c1ccc(S(=O)(=O)N2CCC(C)CC2)cc1	annexin V/PI	concentration not given, 72 h, at IC50	–	necrotic cells	1.66%
C[C@@H]1CC[C@@H]([C@](O)(CNCc2ccc(F)cc2)COCc2ccccc2)[C@H](OCc2ccccc2)C1	cell growth or viability, MTT	10 µM, 72 h	–	inhibition	30.2%
CCC(=CCc1c(O)cc2c(c1O)C(=O)CC(c1ccc(O)cc1)O2)CC (stereo not shown)	cytotoxicity, MTT	27.14 µM, 48 h	–	growth inhibition	54.3%
CC(C)C[C@@H](NC(=O)[C@H](C)NC(=O)CNC(=O)[C@@H](NC=O)C(C)C)C(=O)N[C@@H](C)C(=O)N[C@@H](C(=O)N[C@H](C(=O)N[C@@H](C(=O)N[C@@H](Cc1c[nH]c2ccccc12)C(=O)N[C@H](CC(C)C)C(=O)N[C@@H](Cc1c[nH]c2ccccc12)C(=O)N[C@H](CC(C)C)C(=O)N[C@@H](Cc1c[nH]c2ccccc12)C(=O)N[C@H](CC(C)C)C(=O)N[C@@H](Cc1c[nH]c2ccccc12)C(=O)NCCO)C(C)C)C(C)C)C(C)C	flow cytometry	20 nM, 48 h	–	cells in S phase	23.1 ± 1.71%
CCCCCCCCCCCCCC(=S)NCCCC[C@H](NC(=O)OCc1ccccc1)C(=O)Nc1ccccc1	cell growth or viability, MTT	72 h	–	EC50	6.88 to 8.41 µM
C[C@@H]1CC[C@@H]([C@](O)(CNCc2cccc(F)c2)COCc2ccccc2)[C@H](OCc2ccccc2)C1	cell growth or viability, MTT	10 µM, 72 h	–	inhibition	95.3%
CCN1C(=O)CS/C1=N/N=C(\C)c1c(O)c2ccccc2oc1=O	cell growth, MTT	–	baseline: IC50 BJ-1 over MCF7	selectivity index	> 4.13
COC(=O)c1cc(NC2=NC(=O)C(=Cc3ccc(N(C)C)cc3)S2)ccc1OC(C)=O	GC-MS, refers to: Myo-Inositol	1 µM	baseline: DMSO	metabolite level	0.18 fold change
CCC(=CCc1c(O)cc2c(c1O)C(=O)CC(c1ccc(OC)c(O)c1)O2)CC (stereo not shown)	cytotoxicity, MTT	0.627 µM, 48 h	–	growth inhibition	2.6%
COc1ccc(CNC[C@@](O)(COCc2ccc(F)cc2)[C@@H]2CC[C@@H](C)C[C@H]2OCc2ccc(F)cc2)cc1	cell growth or viability, MTT	30 µM, 72 h	–	inhibition	99%
CC(=O)[O][Pd][c]1ccccc1N1N=C(C)C(C)(C)C1=O.CC(=O)[O][Pd][c]1ccccc1N1N=C(C)C(C)(C)C1=O	JC-1 flow cytometry	25 µM, 24 h	–	cells with decreased ΔΨm	65.6 ± 1.23%
O=C(Nc1nnc2c1c(-c1ccc(Cl)cc1)nc1sc(=Cc3ccco3)c(=O)n12)c1ccccc1 (mixture of isomers)	SRB	10 µM, NCI60 single-dose screen	baseline: untreated	cell growth	52.1%

Repeated from above:
SMILES	assay	setting	how to read	quantity	value
CCCCCCCCCCCCCC(=S)NCCCC[C@H](NC(=O)OCc1ccccc1)C(=O)Nc1ccccc1	cell growth or viability, MTT	72 h	–	EC50	6.88 to 8.41 µM
C[C@@H]1CC[C@@H]([C@](O)(CNCc2cccc(F)c2)COCc2ccccc2)[C@H](OCc2ccccc2)C1	cell growth or viability, MTT	10 µM, 72 h	–	inhibition	95.3%
